Measurements collected from several papers.
Each line is one published result; not all experiments were run side by side. Several values in a cell are separate wells, animals, samples, runs or records. ± gives the spread as reported.

For `CC[C@H](C)[C@@H]1NC(=O)[C@@H]2CCCN2C(=O)[C@@H]2CCCN2C(=O)[C@H]([C@@H](C)CC)NC(=O)[C@H](CO)NC(=O)[C@H](CCCCN)NC(=O)[C@H]([C@@H](C)O)NC(=O)[C@@H]2CSSC[C@H](NC1=O)C(=O)N[C@@H](Cc1ccccc1)C(=O)N1CCC[C@H]1C(=O)N[C@@H](CC(=O)O)C(=O)NCC(=O)N[C@@H](CCCNC(=N)N)C(=O)N2`, the IC50 was > 100 µM (Lymphocyte function-associated antigen 3 (CD58, Homo sapiens, UniProt P19256); Jurkat adhesion to HFLS-RA cells; Jurkat, HFLS-RA; 1 h).
For `COc1cccc(-c2ccc(Nc3ccc(CN(C)C)cc3)c(OC)c2F)c1`, the IC50 was 1520 µM (GTPase KRas (KRAS, Homo sapiens, UniProt P01116, G12D); enzyme activity, inhibitor).
The IC50 of `C=C(NC(=O)C(=C)NC(=O)c1csc(C2=NC3c4csc(n4)C4NC(=O)c5csc(n5)C(C(C)(O)C(C)O)NC(=O)C5CSC(=N5)C(=CC)NC(=O)C(C(C)O)NC(=O)c5csc(n5)C3(CC2)NC(=O)C(Cc2ccc(O)cc2)NC(=O)C(=C)NC(=O)C(C)NC(=O)C(C(C)CC)NC2C=Cc3c(C(C)O)cc(nc3C2O)C(=O)OC4C)n1)C(N)=O` (stereo not drawn) is reported as 0.36 ± 0.03 µM (Proteasome subunit beta type-6 (PSMB6, Homo sapiens, UniProt P28072); caspase-like activity, inhibitor; purified 20S proteasome; 15 min preincubation, 37 °C, together with: Ac-Nle-Pro-Nle-Asp-AMC substrate).
The IC50 of `C[C@]12CCC(=O)C=C1CCC1C2CC[C@]2(C)C(c3cccnc3)=CCC12` (stereo partly drawn) is reported as 0.0001 µM (Steroid 17-alpha-hydroxylase/17,20 lyase (CYP17A1, Homo sapiens, UniProt P05093); enzyme activity in cells, inhibitor, radiometric).
The IC50 of `CCCCSc1nc(N)c2c(F)c(C#N)c(F)c(Cl)c2n1` is reported as 1.37 µM and < 1.52 µM (M-phase inducer phosphatase 2 (CDC25B, Homo sapiens, UniProt P30305); enzyme activity, inhibitor, fluorescence).
For `c1ccc(-c2cc3ccccc3o/c2=N\c2ccc3ccc4cccc5ccc2c3c45)cc1`, the IC50 was 0.0099 µM (Prostaglandin G/H synthase 1 (PTGS1, Ovis aries, UniProt P05979); enzyme activity, inhibitor).
For `N#Cc1c(F)cc(O)cc1SCCS(=O)(=O)O`, the IC50 was ~1000 µM (M-phase inducer phosphatase 2 (CDC25B, Homo sapiens, UniProt P30305, C487S); enzyme activity, inhibitor, AlphaScreen).
The IC50 of `O=C(O[C@@H]1Cc2c(O)cc(O)cc2O[C@@H]1c1ccc(O)c(O)c1)c1cc(O)c(O)c(O)c1` is reported as 105 µM (Sucrase-isomaltase, intestinal (Si, Rattus norvegicus, UniProt P23739); enzyme activity, inhibitor).
`CC(C)C[C@H](NC(=O)[C@H](CC(N)=O)NC(=O)[C@H](CC(C)C)NC(=O)[C@@H](NC(=O)[C@@H](NC(=O)[C@@H]1CCCN1C(=O)[C@H](CCCNC(=N)N)NC(=O)[C@H](CCCCN)NC(=O)[C@@H]1CCCN1)[C@@H](C)O)[C@@H](C)O)C(=O)N[C@@H](Cc1ccccc1)C(N)=O` gave an IC50 of 180 µM (Mitogen-activated protein kinase 1 (Mapk1, Rattus norvegicus, UniProt P63086); enzyme activity, inhibitor, radiometric; pH 7.5).
For `C=CC(=O)N1CCc2ccc(-n3c(=O)ccc4cnc5ccc(-c6cnn(C)c6)cc5c43)cc21`, the IC50 was > 10 µM (Tyrosine-protein kinase FRK (FRK, Homo sapiens, UniProt P42685); enzyme activity, inhibitor).
With `CC1=CC[C@@H]2C[C@H]1C2(C)C` the IC50 was 14.6 µM (chemosensory protein 5 (Mythimna separata, UniProt A0A5H2NAD7); binding, 1-NPN displacement; pH 7.4).
With `O=C(c1cc2ccccc2[nH]1)N1CCC(O)(c2ccc(Cl)cc2)CC1` the IC50 was > 100 µM (CatSper channel complex (Homo sapiens, UniProt Q7RTX7+Q86XQ3+Q8NEC5+Q96P56); calcium influx, inhibitor, FLIPR; human sperm; together with: 3 µM progesterone).

A few entries again:
With `CC1=CC[C@@H]2C[C@H]1C2(C)C` the IC50 was 14.6 µM (chemosensory protein 5 (Mythimna separata, UniProt A0A5H2NAD7); binding, 1-NPN displacement; pH 7.4).
